Experimental data from different studies.
Numbered parts are unrelated; each lists some results of a single study. Values joined by “and” are separate records of one study, mostly repeats; a detail may differ.

Study 1
Compound: C[C@@H]1CN(c2ccc(-c3cc(C(=O)NCCOCCOCCOCCOCCOCCOCCNC(=O)/C=C/c4[nH]cc(C(=O)N[C@@H](CC(N)=O)c5ccc(F)c(Cl)c5)c4-c4ccc(Cl)cc4F)ccc3F)cc2NC(=O)c2ccc(F)cc2C(F)(F)F)C[C@H](C)N1C
Read-out: thermal unfolding
Technique: differential scanning fluorimetry
Tested at: 5.5 µM
Reading: higher = more unfolded
WDR5: WD repeat-containing protein 5 (WDR5, Homo sapiens, UniProt P61964)
DCAF1: DDB1- and CUL4-associated factor 1 (DCAF1, Homo sapiens, UniProt Q9Y4B6)
UniProt Q9Y4B6, sequence (whole entry, looked up): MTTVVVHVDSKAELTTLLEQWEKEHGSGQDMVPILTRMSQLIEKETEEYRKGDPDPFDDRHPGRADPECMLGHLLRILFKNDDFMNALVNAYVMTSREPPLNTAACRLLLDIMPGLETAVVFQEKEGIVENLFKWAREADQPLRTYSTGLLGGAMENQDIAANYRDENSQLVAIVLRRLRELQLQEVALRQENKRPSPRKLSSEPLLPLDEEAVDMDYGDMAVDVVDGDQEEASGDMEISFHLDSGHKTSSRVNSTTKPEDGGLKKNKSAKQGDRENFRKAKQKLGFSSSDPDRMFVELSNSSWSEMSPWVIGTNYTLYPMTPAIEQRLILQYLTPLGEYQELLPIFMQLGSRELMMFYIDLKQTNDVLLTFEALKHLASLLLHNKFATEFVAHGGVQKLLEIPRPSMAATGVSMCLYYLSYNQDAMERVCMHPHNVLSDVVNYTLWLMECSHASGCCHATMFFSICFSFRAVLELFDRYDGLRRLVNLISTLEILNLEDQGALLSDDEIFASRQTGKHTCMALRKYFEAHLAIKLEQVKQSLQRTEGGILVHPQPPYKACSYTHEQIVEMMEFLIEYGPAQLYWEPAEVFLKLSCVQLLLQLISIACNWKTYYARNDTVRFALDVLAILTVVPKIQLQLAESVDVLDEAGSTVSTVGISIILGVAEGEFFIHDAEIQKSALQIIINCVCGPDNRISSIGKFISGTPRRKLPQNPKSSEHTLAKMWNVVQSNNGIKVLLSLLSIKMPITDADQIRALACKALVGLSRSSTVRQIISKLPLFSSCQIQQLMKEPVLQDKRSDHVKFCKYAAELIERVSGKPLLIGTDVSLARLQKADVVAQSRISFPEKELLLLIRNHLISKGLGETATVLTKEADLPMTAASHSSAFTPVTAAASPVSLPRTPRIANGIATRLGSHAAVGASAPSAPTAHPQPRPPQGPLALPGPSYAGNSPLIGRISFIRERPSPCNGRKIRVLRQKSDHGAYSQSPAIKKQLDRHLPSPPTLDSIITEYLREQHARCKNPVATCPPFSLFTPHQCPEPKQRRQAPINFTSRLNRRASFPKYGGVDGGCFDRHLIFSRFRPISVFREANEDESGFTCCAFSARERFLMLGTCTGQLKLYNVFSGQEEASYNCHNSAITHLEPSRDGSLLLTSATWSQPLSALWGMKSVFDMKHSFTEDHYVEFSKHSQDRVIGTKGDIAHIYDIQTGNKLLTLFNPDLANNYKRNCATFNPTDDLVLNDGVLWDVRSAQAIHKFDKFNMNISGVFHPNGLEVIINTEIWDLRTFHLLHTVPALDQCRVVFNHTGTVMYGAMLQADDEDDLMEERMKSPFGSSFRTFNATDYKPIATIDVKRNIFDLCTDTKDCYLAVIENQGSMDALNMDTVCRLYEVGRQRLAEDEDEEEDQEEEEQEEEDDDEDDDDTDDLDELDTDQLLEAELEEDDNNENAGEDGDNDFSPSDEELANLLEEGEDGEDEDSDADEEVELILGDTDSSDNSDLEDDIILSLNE
WDR5; 88.21 °C — “SYPRO Orange fluorescence”: 57500 a.u.
It gave 46800 a.u. for “SYPRO Orange fluorescence” (DCAF1; 71.41 °C).
For WDR5; 71.81 °C: “SYPRO Orange fluorescence” read 34700 a.u.
WDR5; 31.2 °C — “SYPRO Orange fluorescence”: 13700 a.u.
For WDR5; 35.4 °C: “SYPRO Orange fluorescence” read 14000 a.u.
The “SYPRO Orange fluorescence” was 13600 a.u. (WDR5; 30 °C).
For DCAF1; 38.4 °C: “SYPRO Orange fluorescence” read 11000 a.u.
WDR5; 45.4 °C — “SYPRO Orange fluorescence”: 14600 a.u.
For WDR5; 28 °C: “SYPRO Orange fluorescence” read 13500 a.u.
It gave 28900 a.u. for “SYPRO Orange fluorescence” (DCAF1; 94.61 °C).
DCAF1; 45 °C — “SYPRO Orange fluorescence”: 14500 a.u.

Study 2
SMILES: Cn1ncc2c1N(CCCCNC/C=C/C#N)c1cc(Cl)ccc1CC2.O=C(O)/C=C\C(=O)O
Cell line: NCI-H292
Technique: CellTiter-Glo
Time: 72 h
The viability was 96.6% and 107% and 108% (0.05 µM).
It gave -0.528% and -0.34% and -0.647% for viability (50 µM).
0.005 µM — viability: 105% and 103%.
The viability was 102% and 94.4% (0.5 µM).
The viability was 21.1% and 23.6% and 23.2% (5 µM).

Study 3
Species: female CD-1 mouse
Sample: plasma
Route: oral
Dose: 10 mg/kg
For `Cc1ccc(O)c(C)c1-c1cnc2[nH]c(-c3cnc(N4CCC(CN5CCN(c6ccc(NC7CCC(=O)NC7=O)cc6F)CC5)CC4)nc3)cc2c1C#N` (stereo not shown), the bioavailability was 35.4%.
For `Cc1ccc(O)c(C)c1-c1cnc2[nH]c(-c3cnc(N4CCC(CN5CCN(c6ccc7c(c6)CN(C6CCC(=O)NC6=O)C7=O)CC5)CC4)nc3)cc2c1C#N` (stereo not shown), the bioavailability was 9.1%.
With `Cc1ccc(O)c(C)c1-c1cnc2[nH]c(-c3cnc(N4CC5(CC(CN6CCN(c7ccc(NC8CCC(=O)NC8=O)cc7F)CC6)C5)C4)nc3)cc2c1C#N` (stereo not shown) the bioavailability was 28.4%.
For `Cc1ccc(O)c(C)c1-c1cnc2[nH]c(-c3cnc(N4CCC(CN5CCC(c6ccc(NC7CCC(=O)NC7=O)cc6F)CC5)CC4)nc3)cc2c1C#N` (stereo not shown), the bioavailability was 34.5%.
With `Cc1ccc(O)c(C)c1-c1cnc2[nH]c(-c3cnc(N4CCC(CCN5CCN(c6ccc(NC7CCC(=O)NC7=O)cc6F)CC5)CC4)nc3)cc2c1C#N` (stereo not shown) the bioavailability was 43.8%.

Other studies, line by line
Target: Sodium-dependent neutral amino acid transporter B(0)AT1 (SLC6A19, Homo sapiens, UniProt Q695T7)
UniProt Q695T7, sequence (whole entry, looked up): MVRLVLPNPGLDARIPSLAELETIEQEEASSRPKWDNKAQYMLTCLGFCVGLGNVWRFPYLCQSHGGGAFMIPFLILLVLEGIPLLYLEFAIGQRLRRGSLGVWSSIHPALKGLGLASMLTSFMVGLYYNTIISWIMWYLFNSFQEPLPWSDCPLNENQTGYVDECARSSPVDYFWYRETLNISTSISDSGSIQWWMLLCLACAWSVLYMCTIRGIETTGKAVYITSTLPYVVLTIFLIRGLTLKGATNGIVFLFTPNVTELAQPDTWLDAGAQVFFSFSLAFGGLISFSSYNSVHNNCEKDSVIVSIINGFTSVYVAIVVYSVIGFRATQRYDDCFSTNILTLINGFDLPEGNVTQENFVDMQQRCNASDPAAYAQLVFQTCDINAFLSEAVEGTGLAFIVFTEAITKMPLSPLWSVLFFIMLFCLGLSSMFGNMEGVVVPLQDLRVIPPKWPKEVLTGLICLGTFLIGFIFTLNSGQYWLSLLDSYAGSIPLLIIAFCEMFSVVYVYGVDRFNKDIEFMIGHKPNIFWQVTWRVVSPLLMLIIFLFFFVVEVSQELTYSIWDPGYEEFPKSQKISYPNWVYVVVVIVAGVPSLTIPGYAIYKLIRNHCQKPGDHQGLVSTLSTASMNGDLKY
Mode: inhibitor
Cells: CHO-BC cells
Notes: unit not given
Under “remaining transport activity”, `Cc1cc(NCC(=O)NC(C)C)cc(C)c1Cl` is recorded as 0.194 (FLIPR membrane potential; 10 µM; reference: no inhibitor).
`Cc1cc(NCC(=O)NC(C)C)ccc1Br`: “remaining transport activity” 0.761 (FLIPR membrane potential; 0.03 µM; reference: uninhibited cells).
For `CCCNC(=O)COc1ccc(I)c(C)c1`, “remaining transport activity” read 0.841 (L-[14C]leucine uptake; 0.01 µM, 6 min, 37 °C, added: GPNA 3 mM, JPH203 3 µM; reference: uninhibited cells).
`Cc1cc(OCC(=O)NC(C)C)ccc1I`: “remaining transport activity” 0.468 (FLIPR membrane potential; 1 µM; reference: no inhibitor).

Repeated from above (study 3):
With `Cc1ccc(O)c(C)c1-c1cnc2[nH]c(-c3cnc(N4CC5(CC(CN6CCN(c7ccc(NC8CCC(=O)NC8=O)cc7F)CC6)C5)C4)nc3)cc2c1C#N` (stereo not shown) the bioavailability was 28.4%.
For `Cc1ccc(O)c(C)c1-c1cnc2[nH]c(-c3cnc(N4CCC(CN5CCC(c6ccc(NC7CCC(=O)NC7=O)cc6F)CC5)CC4)nc3)cc2c1C#N` (stereo not shown), the bioavailability was 34.5%.
